Measurements pooled from the literature.
Numbered parts are unrelated; each lists some results of a single study. Substitutions count along the parent as printed.

Block 1
Target: Ras GTPase-activating protein-binding protein 1, C-terminal RGG region (G3BP1, Homo sapiens, UniProt Q13283)
Sequence of UniProt Q13283 (whole entry, looked up): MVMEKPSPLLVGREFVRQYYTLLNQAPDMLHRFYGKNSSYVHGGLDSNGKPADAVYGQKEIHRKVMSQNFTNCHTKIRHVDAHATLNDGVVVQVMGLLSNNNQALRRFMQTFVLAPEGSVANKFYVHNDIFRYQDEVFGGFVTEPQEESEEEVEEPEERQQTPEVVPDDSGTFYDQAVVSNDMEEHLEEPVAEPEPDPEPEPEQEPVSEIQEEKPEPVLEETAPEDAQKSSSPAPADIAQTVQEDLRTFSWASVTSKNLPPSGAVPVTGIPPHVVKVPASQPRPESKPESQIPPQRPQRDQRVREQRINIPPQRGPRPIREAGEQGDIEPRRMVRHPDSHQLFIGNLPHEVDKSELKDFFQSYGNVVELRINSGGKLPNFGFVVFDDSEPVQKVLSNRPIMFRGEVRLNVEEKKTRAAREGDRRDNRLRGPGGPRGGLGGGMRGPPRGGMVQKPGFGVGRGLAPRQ
Method: RNA Bind-n-Seq
Molecule type: RNA
Sample: in vitro
Concentration: 1 µM
Setting: whole 134-nt RNA, ends assumed
Together with: 150 mM KCl
Relative to: input library
Direction: higher = stronger binding
Shared flanks, not repeated: GGGAGUUCUACAGUCCGACGAUC … UGGAAUUCUCGGGUGUCAAGG
Strand	log2 enrichment
AAGUCCUGUGCUACACAUCGUAUGUACCGAAUCGGAAAAAAAGGAAAAAGGAAAGGAAAGUAUUAUGUUACGCCGUUCGGAUCUGCACUU	-2.18
UUCCGCGACUACCGGCGUGUGCACAAGCCGCCCAAGGUGCAGGAGAAGUGCCAGCUGGAGAUCAACUUCAACACGCUGCAGACCAAGCUG	-1.72
CUCAAGUCCUGUGCUACACAUCGUAUGUACCGAAUCGGCCGGGGCCGGCCGGGAAAGUAUUAUGUUACGCCGUUCGGAUCUGCACUUCCA	-1.2
UUGGCUACAAUGCAGAGACACAGAAACUACUAUGCAAGAAUGGGGAAACGCUGCUAGGAGCCGUGAACUUCUUUGUCUCUAGCAUCAACA	-1.21
UGGGAGGAGGAUUUUGUUUAUUUUUUUAGCUCAUUUCCAGGGGUGGGAAUUUUUUUUUAAUAUGUGUCAUGAAUAAAGUUGUUUUUGAAA	3.17
UGGGAGGUGGAUUUUGUCUAUUUUUUUAGCUCAUUUCCAGGGGUGGGAAUUUUUUUUUAAUAUGUGUCAUGAAUAAAGUUGUUUUUGAAA	3.24
GAGGGAGUUUGCAGAUACCUCAGGAUUCGUGACAAUGCCUUUAAAGAUCCAGGAGAGAUGUUCAGCUACUAGGAACUGCUAGCAAGUAUA	-0.963
GUCCUGUGCUACACAUCGUAUGUACCGAAUCGGGGUUUUUGGUUUUUGGGGUUUUUGGAAAGUAUUAUGUUACGCCGUUCGGAUCUGCAC	-1.05
GUCCUGUGCUACACAUCGUAUGUACCGAAUCGGGGUUUUGGGUUUUGGGGUUUUGGGGAAAGUAUUAUGUUACGCCGUUCGGAUCUGCAC	0.415
ACCAUGCAGGUGGGCAUCUUUGGGAAGUGGGGCAAGGGGGGGAUAGGGAGGGGGGUAACACUUCGGGAACAGGUGGUCCCAGGUCGUUUC	2.19

Block 2
Target: Max-binding protein MNT, bHLH-zipper, MAX partner unstated (MNT, Homo sapiens, UniProt Q99583, residues 220-300)
Method: protein-binding microarray
Molecule type: double-stranded DNA, one strand shown
Sample: in vitro
Concentration: not given
Setting: k-mer, scored over probes, only values ≥0.25
Direction: higher = stronger binding
Construct (chain): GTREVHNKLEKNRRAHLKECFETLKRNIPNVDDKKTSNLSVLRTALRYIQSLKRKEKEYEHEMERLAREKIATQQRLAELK
Strand	E-score
CACGCTCA	0.302
GGCATCAC	0.281
AGCAGGTG	0.329
ATGCGCCA	0.265
CACGTTCG	0.267
CGCTCCAC	0.251
GCGTGCCA	0.396
TGCCGGCA	0.293
ACTTGCAC	0.263
GACGCCAC	0.338
GCGTGTTA	0.408
CACGCCCG	0.319
ACATGTCA	0.324
CACGTTTA	0.369
CGTGACAG	0.356
AAGGCACG	0.296

Block 3
Target: ABI1, truncated, D143A, DHFR fusion (Arabidopsis thaliana)
Method: DHFR PCA, deep sequencing
Sample: yeast
Setting: methotrexate growth selection, single substitutions
Together with: (+)-ABA 17 µM
Relative to: wild-type fitted maximum
Direction: higher = stronger binding
Parent: PYL1, truncated, DHFR fusion (Arabidopsis thaliana); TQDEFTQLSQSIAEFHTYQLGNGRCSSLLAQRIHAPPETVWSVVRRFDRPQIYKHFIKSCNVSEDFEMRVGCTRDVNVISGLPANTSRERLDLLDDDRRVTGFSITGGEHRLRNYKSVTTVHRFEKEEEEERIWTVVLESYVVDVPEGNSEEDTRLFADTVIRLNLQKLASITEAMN
Change	relative binding score
P36K	75.4%
R74A	3.43%
R69L	66.4%
E130K	96.8%
Y18V	63.1%
E125F	88%
L138N	14.5%
G71Y	-6.55%
E127Y	78.6%
L138Q	13.7%
T73L	78.9%
V40Q	6.33%
S27P	16%
G21S	83.3%
Q31R	68.7%
T17L	39.5%
E131I	81.3%
Q51T	41.8%

Block 4
Target: Sal-like protein 4, full length isoform B (SALL4, Homo sapiens, UniProt Q9UJQ4-2, residues 1-616)
Method: universal PBM
Molecule type: double-stranded DNA, one strand shown
Sample: in vitro
Concentration: not given
Setting: 8-mer, flanks averaged, mean of replicates
Direction: higher = stronger binding
Strand	E-score
CTCTAGTA	0.168
ACGAGCAA	-0.0704
CCATAAGC	0.0683
ACTGACAT	0.0903
CATAACGC	0.167
ATGACCTA	0.156
AAGTTGGA	0.106
ATAACCTG	0.247
GTGCGTGA	-0.0527
CCTGACTC	-0.175
CGCCACAC	-0.133
GCATAATA	0.392
GATGCAAC	-0.113
ACAATACC	0.212
GGGATGAC	-0.214
GGTAGTTA	0.0148
CGCGTACC	-0.238
CTTCCGCC	-0.147
AGAAACCA	-0.0697
CCGTAACA	0.12
CAAGGCCC	-0.265
GCTACGCC	-0.258
TATGAGCA	0.201
ATGTGAAA	0.261

Block 5
Target: Centromere-binding protein 1, full length, N-terminal tag (CBF1, Saccharomyces cerevisiae, UniProt P17106, residues 1-351)
Sequence of UniProt P17106 (whole entry, looked up): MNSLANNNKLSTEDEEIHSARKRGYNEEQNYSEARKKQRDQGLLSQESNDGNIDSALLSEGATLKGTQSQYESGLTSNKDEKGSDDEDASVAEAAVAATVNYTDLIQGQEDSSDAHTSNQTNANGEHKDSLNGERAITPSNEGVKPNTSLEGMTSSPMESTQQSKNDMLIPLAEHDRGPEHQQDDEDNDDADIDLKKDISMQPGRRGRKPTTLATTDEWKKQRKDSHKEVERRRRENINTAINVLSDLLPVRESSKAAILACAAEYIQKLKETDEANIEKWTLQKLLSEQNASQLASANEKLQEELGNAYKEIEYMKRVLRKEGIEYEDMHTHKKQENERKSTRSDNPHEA
Method: protein-binding microarray
Molecule type: double-stranded DNA, one strand shown
Sample: in vitro
Concentration: 0.8 µM
Setting: whole 60-bp probe, no competitor
Direction: higher = stronger binding
Shared flanks, not repeated: … GTCTTGATTCGCTTGACGCTGCTG
Strand	fluorescence intensity [a.u.]
TGTACGAAGCTATAACGTGTGATTATAGTAGTTAGG	572
CTATGAAAAAGTAATTTCGTGACCTTCGGTATATTC	601
GAAGTTTTTACTAGGCATCAGAACTGTCTCCGATAG	476
CTATCGTTGCGTTCAGGCCTGACGGGCGATTCCTTC	484
GAATAAGAAAAACACCTGACAAATAATAATACCTAG	2300
CTATGTTTGTGGGATCTGTCACGTATATCGCCATTC	724
GAATCGTAAGTTGTGCGCGTGCACATTTCGCCCTAG	1280
GAAACTCAGACGAGCAATATCACGTGTTGCGATTAG	11300
GAACACTAATTGTTAAACGTGTCAATTATGTGTTAG	620
GAACCCACCTGCGGTGGTGTGGCACACGCATTCTAG	519
GAAACTCAGGGGATTCATCTGATGATGGAAAAATAG	564
GAATAGATCGAGGCCAAGGTGGTGGTTTATAAATAG	498
CCTAACTACTATAAAGGCGTGGTATAGCTTCGTACA	537
GAACTAGCTCGAATACTGGTGGTGCAATTGAACTAG	537
GAACCATGGGTCTGTCTCCTGTTAAAGCATGTATAG	537
GAATACTATTTAAGCACGTGCATAAATTGGGTGTAG	16800
CTACTCAGCGGGTGTCACCACTTCGTCCTCATCTTC	526
GAACTATTGTTTTGTCATCAGAACCAAATGCCATAG	582

Block 6
Target: Histone acetyltransferase KAT6A, winged helix 2, GST fusion (KAT6A, Homo sapiens, UniProt Q92794, residues 85-181)
Method: protein binding microarray
Molecule type: double-stranded DNA, one strand shown
Sample: in vitro
Concentration: not given
Setting: 8-mer, flanks averaged, mean of 2 arrays, mostly near background
Relative to: not given
Direction: higher = stronger binding
Target sequence (chain): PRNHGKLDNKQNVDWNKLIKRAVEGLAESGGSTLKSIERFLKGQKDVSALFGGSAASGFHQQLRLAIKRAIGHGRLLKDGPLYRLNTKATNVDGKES
Strand	E-score
GAGATTAA	-0.0182
CCGCTCAG	0.00058
GAAAAATC	0.156
CCGTGAGG	-0.0339
GACCATCA	-0.165
CTCTGCGC	0.096
ACTGAGAG	-0.0674
TCATGCAA	0.0276
GGGACCCC	0.018
TGTAAGAA	0.0496
AGGTCATC	-0.177
CCCCCTCA	-0.146
CCAAGTAC	-0.126
GATCGCGC	0.0402
CGAGCGGA	0.168
ATCGAGGG	0.0291
AATGATAC	-0.0522
AAGCCGGA	0.257

Block 7
Target: Interferon regulatory factor 3, full length, phosphomimetic (IRF3, Homo sapiens, UniProt Q14653, residues 1-427, S386D/S396D/S398D/S402D/T404D/S405D)
Method: protein-binding microarray
Molecule type: double-stranded DNA, one strand shown
Sample: in vitro
Concentration: 2540 nM top
Setting: 60-bp whole probe
Together with: salmon DNA 0.4 mg/ml
Relative to: random background probes
Direction: higher = stronger binding
Shared flanks, not repeated: GCCTAGCAC … GTCTTGATTCGCTTGACGCTGCTG
Construct (chain): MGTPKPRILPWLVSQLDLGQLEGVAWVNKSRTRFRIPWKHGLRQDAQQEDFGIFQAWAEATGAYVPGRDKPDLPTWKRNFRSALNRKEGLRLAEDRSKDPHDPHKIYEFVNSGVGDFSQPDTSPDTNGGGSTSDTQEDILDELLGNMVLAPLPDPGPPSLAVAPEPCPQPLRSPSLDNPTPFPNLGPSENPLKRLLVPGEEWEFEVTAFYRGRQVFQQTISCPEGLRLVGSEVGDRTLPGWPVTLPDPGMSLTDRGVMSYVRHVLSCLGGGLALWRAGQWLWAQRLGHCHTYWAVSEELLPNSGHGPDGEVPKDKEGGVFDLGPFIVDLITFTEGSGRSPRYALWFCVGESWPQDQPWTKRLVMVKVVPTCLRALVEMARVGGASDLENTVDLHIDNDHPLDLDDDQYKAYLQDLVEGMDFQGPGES
Strand	fitted relative affinity
CTGCATCTGATTTCTCAAACAGTGCTA	0.01 z-score
GGCGGTTTCGGTTCCGGGACGTGCTAG	10.1 z-score
TCATTTTATGCTTTCTTACTGTGCTAG	1.83 z-score
GACGGGATCCTTCTCCTGACGTGCTAG	4.49 z-score
GACGTTTTCCTTTTCCTGACGTGCTAG	7.99 z-score
GACGATATCAGTTTCCAGACGTGCTAG	4.32 z-score
TTAAGTATCCTTATCCTTTAGTGCTAG	6.38 z-score
GACGGACTGGGTCTAGGGACGTGCTAG	-0.936 z-score
GACGGACGGCTTTTCCTGACGTGCTAG	-0.504 z-score
TTAGGTATCGGGACTGGGATAGTGCTA	1.25 z-score
TTAGGTATCGGGTTTCGTTTAGTGCTA	2.95 z-score
GACGAACTGGGGACTGGAGGCGTGCTA	-0.535 z-score
TCACCTTGAGGTTTTCTCACTGTGCTA	-0.0641 z-score
GACGCTATCCTACTGCTGACGTGCTAG	0.869 z-score
GCCGGTATCGGACTGGGGACGTGCTAG	2.04 z-score
TTAGGTTTCGGGTTTCTGTTAGTGCTA	5.4 z-score
TCACATTTTGGTTTTCAACTGTGCTAG	2.13 z-score
GACGGACAGGACTATCGGGACGTGCTA	-0.471 z-score
TAAGGTTTCGACACTGGGTTAGTGCTA	2.34 z-score
TTAGCTATCGGGTTTCGGTTAGTGCTA	2.62 z-score
CCACTTTCACTTCTCCCTTTGTGCTAG	6.46 z-score
TTCGGTCTCCTTTTCCTTTAGTGCTAG	5.96 z-score
GAAAGCCTGCTGCCAGTCTGGTGCTAG	-0.831 z-score
TCATATATACCTGTATAACTGTGCTAG	0.643 z-score
